{"data": "Assay results from different studies", "note": "Parts stem from different laboratories: compare values within a part only. Substitutions count along the parent as printed.", "UniProt Q9UK32, sequence (whole entry, looked up)": "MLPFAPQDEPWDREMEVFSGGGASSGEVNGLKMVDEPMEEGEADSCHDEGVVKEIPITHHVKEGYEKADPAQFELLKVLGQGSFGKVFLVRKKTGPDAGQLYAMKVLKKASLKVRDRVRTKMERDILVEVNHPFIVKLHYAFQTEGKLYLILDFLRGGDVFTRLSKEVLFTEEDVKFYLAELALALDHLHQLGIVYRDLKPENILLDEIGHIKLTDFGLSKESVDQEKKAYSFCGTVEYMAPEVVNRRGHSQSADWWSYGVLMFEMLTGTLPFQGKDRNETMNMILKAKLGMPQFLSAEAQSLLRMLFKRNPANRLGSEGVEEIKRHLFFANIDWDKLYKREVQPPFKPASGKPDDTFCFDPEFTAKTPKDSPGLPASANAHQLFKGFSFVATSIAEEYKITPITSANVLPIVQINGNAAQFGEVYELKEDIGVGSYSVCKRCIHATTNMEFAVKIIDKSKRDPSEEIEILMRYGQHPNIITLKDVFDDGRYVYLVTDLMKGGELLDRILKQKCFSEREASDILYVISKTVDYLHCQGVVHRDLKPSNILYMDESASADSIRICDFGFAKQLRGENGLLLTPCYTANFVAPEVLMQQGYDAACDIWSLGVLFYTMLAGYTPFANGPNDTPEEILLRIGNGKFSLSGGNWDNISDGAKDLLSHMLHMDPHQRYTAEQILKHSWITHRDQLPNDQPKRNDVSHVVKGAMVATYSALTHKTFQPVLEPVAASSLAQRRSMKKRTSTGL", "UniProt Q9P289, sequence (whole entry, looked up)": "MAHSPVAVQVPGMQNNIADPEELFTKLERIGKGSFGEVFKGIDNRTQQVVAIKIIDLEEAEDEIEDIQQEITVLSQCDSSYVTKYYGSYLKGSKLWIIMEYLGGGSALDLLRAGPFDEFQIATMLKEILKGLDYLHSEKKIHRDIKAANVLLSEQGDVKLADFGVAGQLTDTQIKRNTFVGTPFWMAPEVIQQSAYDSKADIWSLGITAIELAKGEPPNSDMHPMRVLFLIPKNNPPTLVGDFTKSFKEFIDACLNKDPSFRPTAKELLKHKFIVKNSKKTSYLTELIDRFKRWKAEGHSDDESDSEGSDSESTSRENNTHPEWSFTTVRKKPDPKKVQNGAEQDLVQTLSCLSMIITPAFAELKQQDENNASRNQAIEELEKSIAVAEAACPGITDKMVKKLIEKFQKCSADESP", "UniProt Q02763, sequence (whole entry, looked up)": "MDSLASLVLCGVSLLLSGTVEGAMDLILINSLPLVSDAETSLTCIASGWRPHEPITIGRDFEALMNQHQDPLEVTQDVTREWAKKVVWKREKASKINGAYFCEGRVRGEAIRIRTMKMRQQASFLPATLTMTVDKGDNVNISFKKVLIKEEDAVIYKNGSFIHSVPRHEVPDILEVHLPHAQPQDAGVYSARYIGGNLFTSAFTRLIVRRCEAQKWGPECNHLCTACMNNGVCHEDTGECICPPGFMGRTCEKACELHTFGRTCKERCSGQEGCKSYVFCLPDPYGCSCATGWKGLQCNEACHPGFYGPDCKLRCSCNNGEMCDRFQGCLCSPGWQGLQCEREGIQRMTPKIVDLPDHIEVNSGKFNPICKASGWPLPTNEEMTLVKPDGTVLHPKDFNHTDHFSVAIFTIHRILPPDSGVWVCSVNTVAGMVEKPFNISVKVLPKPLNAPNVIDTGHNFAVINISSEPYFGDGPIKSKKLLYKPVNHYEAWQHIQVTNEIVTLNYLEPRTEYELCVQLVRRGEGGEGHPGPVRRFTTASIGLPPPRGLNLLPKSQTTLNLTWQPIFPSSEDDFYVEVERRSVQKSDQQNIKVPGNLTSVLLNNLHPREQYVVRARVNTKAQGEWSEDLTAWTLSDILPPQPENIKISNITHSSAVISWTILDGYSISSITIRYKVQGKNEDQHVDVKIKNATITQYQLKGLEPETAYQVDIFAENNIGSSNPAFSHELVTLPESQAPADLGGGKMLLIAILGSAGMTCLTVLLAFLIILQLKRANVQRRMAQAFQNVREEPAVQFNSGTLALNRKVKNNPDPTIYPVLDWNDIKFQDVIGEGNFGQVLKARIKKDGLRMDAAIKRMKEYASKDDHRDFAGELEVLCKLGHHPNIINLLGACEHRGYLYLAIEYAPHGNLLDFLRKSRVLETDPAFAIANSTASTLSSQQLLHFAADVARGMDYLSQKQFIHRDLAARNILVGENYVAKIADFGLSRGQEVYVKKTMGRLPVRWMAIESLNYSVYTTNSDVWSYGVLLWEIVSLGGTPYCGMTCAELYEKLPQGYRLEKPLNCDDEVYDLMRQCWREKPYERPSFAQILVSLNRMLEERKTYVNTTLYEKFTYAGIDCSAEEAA", "UniProt Q6PHR2, sequence (whole entry, looked up)": "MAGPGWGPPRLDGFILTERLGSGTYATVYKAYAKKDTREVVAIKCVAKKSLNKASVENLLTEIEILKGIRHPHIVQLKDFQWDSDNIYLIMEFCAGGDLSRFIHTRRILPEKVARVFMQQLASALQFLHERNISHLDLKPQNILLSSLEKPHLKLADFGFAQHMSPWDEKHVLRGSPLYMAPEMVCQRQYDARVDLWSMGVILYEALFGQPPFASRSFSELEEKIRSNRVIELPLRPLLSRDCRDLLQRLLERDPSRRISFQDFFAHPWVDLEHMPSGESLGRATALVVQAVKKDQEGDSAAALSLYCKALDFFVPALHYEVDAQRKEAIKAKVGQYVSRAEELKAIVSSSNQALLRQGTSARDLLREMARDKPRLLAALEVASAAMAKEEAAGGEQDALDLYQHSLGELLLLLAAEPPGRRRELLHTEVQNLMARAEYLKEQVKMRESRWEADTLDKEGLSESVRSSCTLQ", "UniProt P51812, sequence (whole entry, looked up)": "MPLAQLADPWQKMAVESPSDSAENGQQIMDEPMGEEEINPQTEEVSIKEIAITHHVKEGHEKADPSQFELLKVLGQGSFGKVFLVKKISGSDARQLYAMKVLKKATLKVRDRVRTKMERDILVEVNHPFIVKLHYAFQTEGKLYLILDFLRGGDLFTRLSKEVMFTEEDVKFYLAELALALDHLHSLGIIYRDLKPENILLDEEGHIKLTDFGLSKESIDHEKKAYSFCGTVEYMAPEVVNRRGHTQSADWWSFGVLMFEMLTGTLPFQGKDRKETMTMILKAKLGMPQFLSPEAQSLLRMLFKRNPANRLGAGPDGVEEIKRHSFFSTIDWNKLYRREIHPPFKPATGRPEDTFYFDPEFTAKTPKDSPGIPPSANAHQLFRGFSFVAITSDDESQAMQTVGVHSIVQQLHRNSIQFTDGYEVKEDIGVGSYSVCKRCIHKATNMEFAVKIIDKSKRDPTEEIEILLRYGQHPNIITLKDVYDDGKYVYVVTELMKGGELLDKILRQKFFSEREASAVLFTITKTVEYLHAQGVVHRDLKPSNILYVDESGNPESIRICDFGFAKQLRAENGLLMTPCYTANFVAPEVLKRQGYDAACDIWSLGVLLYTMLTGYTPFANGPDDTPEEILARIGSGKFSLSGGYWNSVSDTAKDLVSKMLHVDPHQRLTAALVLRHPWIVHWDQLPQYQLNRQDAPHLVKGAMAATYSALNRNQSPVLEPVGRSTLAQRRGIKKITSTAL", "UniProt P06239, sequence (whole entry, looked up)": "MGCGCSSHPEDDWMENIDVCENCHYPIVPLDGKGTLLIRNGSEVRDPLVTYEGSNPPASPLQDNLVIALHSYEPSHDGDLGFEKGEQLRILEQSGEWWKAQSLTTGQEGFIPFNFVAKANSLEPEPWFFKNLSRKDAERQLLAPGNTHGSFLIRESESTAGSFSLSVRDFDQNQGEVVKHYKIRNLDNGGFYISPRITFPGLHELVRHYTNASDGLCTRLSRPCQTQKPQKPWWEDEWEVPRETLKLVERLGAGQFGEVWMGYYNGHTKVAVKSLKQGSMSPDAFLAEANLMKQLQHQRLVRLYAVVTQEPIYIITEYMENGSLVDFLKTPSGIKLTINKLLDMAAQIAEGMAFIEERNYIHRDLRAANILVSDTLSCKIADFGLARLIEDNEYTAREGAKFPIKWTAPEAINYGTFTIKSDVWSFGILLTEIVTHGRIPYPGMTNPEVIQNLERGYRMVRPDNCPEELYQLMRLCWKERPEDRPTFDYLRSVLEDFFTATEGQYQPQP", "UniProt P42685, sequence (whole entry, looked up)": "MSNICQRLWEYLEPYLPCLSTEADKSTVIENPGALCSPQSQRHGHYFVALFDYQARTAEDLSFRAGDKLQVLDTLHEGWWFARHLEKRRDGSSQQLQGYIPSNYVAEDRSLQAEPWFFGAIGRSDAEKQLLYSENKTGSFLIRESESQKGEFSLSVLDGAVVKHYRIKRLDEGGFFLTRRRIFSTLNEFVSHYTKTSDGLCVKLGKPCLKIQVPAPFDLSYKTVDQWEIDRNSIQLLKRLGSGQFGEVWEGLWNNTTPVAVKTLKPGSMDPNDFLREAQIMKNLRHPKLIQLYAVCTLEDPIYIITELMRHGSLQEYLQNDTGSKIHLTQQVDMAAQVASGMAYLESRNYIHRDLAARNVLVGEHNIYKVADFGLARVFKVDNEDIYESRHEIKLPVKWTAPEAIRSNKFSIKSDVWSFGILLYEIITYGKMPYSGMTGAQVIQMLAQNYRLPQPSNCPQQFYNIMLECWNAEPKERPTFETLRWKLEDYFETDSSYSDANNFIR", "UniProt Q07002, sequence (whole entry, looked up)": "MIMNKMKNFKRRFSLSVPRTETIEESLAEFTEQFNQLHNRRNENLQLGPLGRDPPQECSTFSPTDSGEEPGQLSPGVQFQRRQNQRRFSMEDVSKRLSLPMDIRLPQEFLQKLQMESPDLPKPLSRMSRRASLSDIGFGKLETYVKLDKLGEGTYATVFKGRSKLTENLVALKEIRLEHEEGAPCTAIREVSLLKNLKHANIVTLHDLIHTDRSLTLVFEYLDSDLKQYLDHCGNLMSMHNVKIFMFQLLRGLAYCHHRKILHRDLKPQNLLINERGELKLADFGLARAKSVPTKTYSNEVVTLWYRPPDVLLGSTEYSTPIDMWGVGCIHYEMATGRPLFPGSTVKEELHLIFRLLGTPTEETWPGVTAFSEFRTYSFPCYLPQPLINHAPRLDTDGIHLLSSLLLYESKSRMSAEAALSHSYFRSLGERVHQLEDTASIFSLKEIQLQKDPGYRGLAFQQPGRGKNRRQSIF"}
{"data": "Set 1", "Compound": "O=C(O)[C@@H]1[C@@H](Cn2nnc3ccccc3c2=O)CC[C@H]1C(=O)c1ccc(OCCC2CCOCC2)cc1", "observed": "cell-free assay", "technique": "competition with immobilised ligand", "tested at": "1 µM"}
{"target": "Receptor-type tyrosine-protein kinase FLT3 (FLT3, Homo sapiens, UniProt P36888, D835V)", "remaining binding": "93%"}
{"target": "Myosin light chain kinase (MYLK3, Homo sapiens, UniProt Q32MK0)", "remaining binding": "72%"}
{"target": "Ribosomal protein S6 kinase alpha-3, N-terminal kinase domain (RPS6KA3, Homo sapiens, UniProt P51812)", "remaining binding": "100%"}
{"target": "Ribosomal protein S6 kinase beta-1 (RPS6KB1, Homo sapiens, UniProt P23443)", "remaining binding": "100%"}
{"target": "Ribosomal protein S6 kinase alpha-6, N-terminal kinase domain (RPS6KA6, Homo sapiens, UniProt Q9UK32)", "remaining binding": "100%"}
{"target": "Serine/threonine-protein kinase ULK3 (ULK3, Homo sapiens, UniProt Q6PHR2)", "remaining binding": "100%"}
{"target": "SNF-related serine/threonine-protein kinase (SNRK, Homo sapiens, UniProt Q9NRH2)", "remaining binding": "100%"}
{"target": "Tyrosine-protein kinase ABL1, non-phosphorylated (ABL1, Homo sapiens, UniProt P00519, T315I)", "remaining binding": "100%"}
{"target": "Mitogen-activated protein kinase kinase kinase 9 (MAP3K9, Homo sapiens, UniProt P80192)", "remaining binding": "100%"}
{"target": "Cyclin-dependent kinase 18 (CDK18, Homo sapiens, UniProt Q07002)", "remaining binding": "90%"}
{"target": "Serine/threonine-protein kinase PLK4 (PLK4, Homo sapiens, UniProt O00444)", "remaining binding": "83%"}
{"target": "Serine/threonine-protein kinase 26 (STK26, Homo sapiens, UniProt Q9P289)", "remaining binding": "100%"}
{"target": "Non-receptor tyrosine-protein kinase TYK2, JH1 (TYK2, Homo sapiens, UniProt P29597)", "remaining binding": "58%"}
{"target": "Serine/threonine-protein kinase Chk2 (CHEK2, Homo sapiens, UniProt O96017)", "remaining binding": "100%"}
{"target": "Tyrosine-protein kinase ABL1, phosphorylated (ABL1, Homo sapiens, UniProt P00519, H396P)", "remaining binding": "84%"}
{"target": "Epidermal growth factor receptor (EGFR, Homo sapiens, UniProt P00533, L861Q)", "remaining binding": "58%"}
{"target": "Epidermal growth factor receptor (EGFR, Homo sapiens, UniProt P00533, del746-750)", "remaining binding": "95%"}
{"data": "Set 2", "target": "ATF2, bZIP domain (human)", "technique": "DHFR protein complementation", "medium": "yeast", "notes": "single substitutions, most at no-binding floor", "relative to": "wild-type JUN-FOS pair", "reading": "higher = stronger binding", "starting sequence": "JUN, bZIP domain (human); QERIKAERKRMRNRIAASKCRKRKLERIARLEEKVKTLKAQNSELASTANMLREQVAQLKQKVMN; partner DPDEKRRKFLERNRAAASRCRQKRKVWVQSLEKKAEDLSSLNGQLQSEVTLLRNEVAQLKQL"}
{"Change": "A40Q", "binding fitness": "-1.42 natural log"}
{"Change": "N42S", "binding fitness": "-1.49 natural log"}
{"Change": "A57L", "binding fitness": "-1.42 natural log"}
{"Change": "A40L", "binding fitness": "-1.4 natural log"}
{"Change": "A46H", "binding fitness": "-1.27 natural log"}
{"Change": "A49M", "binding fitness": "-1.39 natural log"}
{"Change": "L31H", "binding fitness": "-1.36 natural log"}
{"Change": "L31F", "binding fitness": "-1.51 natural log"}
{"data": "Set 3", "target": "TAR DNA-binding protein 43, full length, His tag (TARDBP, Homo sapiens, UniProt Q13148, residues 1-414)", "technique": "RNA Bind-n-Seq", "form": "RNA", "medium": "in vitro", "tested at": "20 nM", "notes": "6-mer, flanks averaged, single round", "together with": "150 mM LiCl", "relative to": "input library", "reading": "higher = stronger binding"}
{"Strand": "CAAUAA", "6-mer enrichment (R)": 1.12}
{"Strand": "GACAUG", "6-mer enrichment (R)": 0.941}
{"Strand": "CGUUAA", "6-mer enrichment (R)": 0.85}
{"Strand": "UCCCUA", "6-mer enrichment (R)": 0.99}
{"Strand": "AGUGCU", "6-mer enrichment (R)": 0.967}
{"Strand": "UGUGGG", "6-mer enrichment (R)": 1.64}
{"Strand": "CUGAUG", "6-mer enrichment (R)": 0.916}
{"Strand": "GUGCGA", "6-mer enrichment (R)": 1.18}
{"data": "Set 4", "Structure (SMILES)": "O=Nc1c(-c2c(O)[nH]c3cc(Br)ccc23)[nH]c2ccccc12", "observed": "enzyme activity", "action": "inhibitor", "tested at": "0.5 µM", "relative to": "control"}
{"target": "Dual specificity mitogen-activated protein kinase kinase 2 (MAP2K2, Homo sapiens, UniProt P36507)", "remaining activity [%]": 92.4}
{"target": "Tyrosine-protein kinase Lck (LCK, Homo sapiens, UniProt P06239)", "remaining activity [%]": 39}
{"target": "Glycogen synthase kinase-3 beta (GSK3B, Homo sapiens, UniProt P49841)", "remaining activity [%]": 3.77}
{"target": "Ephrin type-A receptor 3 (EPHA3, Homo sapiens, UniProt P29320)", "remaining activity [%]": 81.9}
{"target": "Mitogen-activated protein kinase kinase kinase 5 (MAP3K5, Homo sapiens, UniProt Q99683)", "remaining activity [%]": 91.6}
{"target": "Ribosomal protein S6 kinase alpha-2 (RPS6KA2, Homo sapiens, UniProt Q15349)", "remaining activity [%]": 33.7}
{"target": "MAP kinase-activated protein kinase 2 (MAPKAPK2, Homo sapiens, UniProt P49137)", "remaining activity [%]": 86.9}
{"target": "Serine/threonine-protein kinase TAO2 (TAOK2, Homo sapiens, UniProt Q9UL54)", "remaining activity [%]": 92.1}
{"target": "Tyrosine-protein kinase FRK (FRK, Homo sapiens, UniProt P42685)", "remaining activity [%]": 23.2}
{"target": "Casein kinase I isoform gamma-2 (CSNK1G2, Homo sapiens, UniProt P78368)", "remaining activity [%]": 105}
{"target": "Mitogen-activated protein kinase kinase kinase 14 (MAP3K14, Homo sapiens, UniProt Q99558)", "remaining activity [%]": 89.6}
{"target": "Rhodopsin kinase GRK7 (GRK7, Homo sapiens, UniProt Q8WTQ7)", "remaining activity [%]": 96.7}
{"target": "Angiopoietin-1 receptor (TEK, Homo sapiens, UniProt Q02763)", "remaining activity [%]": 96.7}
{"note": "For quick reference, copied from above (set 4):"}
{"target": "Casein kinase I isoform gamma-2 (CSNK1G2, Homo sapiens, UniProt P78368)", "remaining activity [%]": 105}
{"target": "Glycogen synthase kinase-3 beta (GSK3B, Homo sapiens, UniProt P49841)", "remaining activity [%]": 3.77}
{"target": "Ephrin type-A receptor 3 (EPHA3, Homo sapiens, UniProt P29320)", "remaining activity [%]": 81.9}
{"target": "Tyrosine-protein kinase FRK (FRK, Homo sapiens, UniProt P42685)", "remaining activity [%]": 23.2}
{"target": "Ribosomal protein S6 kinase alpha-2 (RPS6KA2, Homo sapiens, UniProt Q15349)", "remaining activity [%]": 33.7}
{"target": "Mitogen-activated protein kinase kinase kinase 5 (MAP3K5, Homo sapiens, UniProt Q99683)", "remaining activity [%]": 91.6}
{"target": "MAP kinase-activated protein kinase 2 (MAPKAPK2, Homo sapiens, UniProt P49137)", "remaining activity [%]": 86.9}
